Measured values gathered from unrelated publications.
Several values in a cell are separate wells, animals, samples, runs or records. ± marks the error that the study gave.
SLC6A6 Y138A: Sodium- and chloride-dependent taurine transporter (SLC6A6, Homo sapiens, UniProt P31641, Y138A)
Tumor necrosis factor receptor superfamily member 9/Nectin-4: Tumor necrosis factor receptor superfamily member 9/Nectin-4 (Homo sapiens, UniProt Q07011+Q96NY8)
T1: RNA, tetracycline-neomycin hybrid riboswitch; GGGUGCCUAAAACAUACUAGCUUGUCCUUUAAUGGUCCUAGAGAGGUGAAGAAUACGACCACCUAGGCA
T2: ssDNA, aptamer; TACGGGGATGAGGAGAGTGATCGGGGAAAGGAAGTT

SMILES	target	assay	system	conditions	scale	measurement	value
O=C(CN1CCO[C@@H](COc2ccccn2)C1)N1CCc2ccccc21	HTR2B (Homo sapiens, UniProt P41595)	radioligand binding	–	concentration not given, together with: [3H]LSD	–	inhibition	27.5%
CC[C@H](C)[C@@H]1NC(=O)[C@H](C)NC(=O)[C@H]([C@@H](C)CC)NC(=O)[C@H](CCC(N)=O)NC(=O)[C@H](C)NC(=O)[C@H](CCCNC(=N)N)NC(=O)[C@H](C(C)C)NC(=O)[C@H](CC(C)C)NC(=O)[C@H](CCC(=O)O)NC(=O)[C@H](CCCNC(=N)N)NC(=O)CNC(=O)[C@@H](NC(=O)[C@H](CC(C)C)NC(=O)[C@H](CCCCN)NC(=O)[C@@H](NC(=O)[C@@H](NC(=O)[C@H](CCC(=O)O)NC(=O)[C@H](CCC(=O)O)NC(=O)[C@H](CCSC)NC(=O)[C@H](Cc2c[nH]c3ccccc23)NC(=O)[C@H](CO)NC(=O)[C@@H](N)CC(=O)O)C(C)C)[C@@H](C)CC)CSSC[C@@H]2NC(=O)[C@@H](NC(=O)[C@H](CCCCN)NC(=O)[C@H](CC(N)=O)NC(=O)[C@H](C)NC(=O)[C@H](CC(C)C)NC(=O)[C@H](C)NC(=O)[C@H](CO)NC(=O)[C@H](Cc3ccc(O)cc3)NC(=O)[C@H](CC(C)C)NC(=O)[C@H](CCC(N)=O)NC(=O)c3ccc(-c4c5ccc(=[N+](C)C)cc-5oc5cc(N(C)C)ccc45)c(C(=O)[O-])c3)CSSC[C@H](NC(=O)CNC(=O)[C@H](C(C)C)NC(=O)[C@H](Cc3c[nH]cn3)NC2=O)C(=O)N[C@@H]([C@@H](C)O)C(=O)N[C@@H](CCCCN)C(=O)N[C@@H](CCCNC(=N)N)C(=O)N[C@@H](CO)C(=O)N[C@@H](CC(C)C)C(=O)N[C@@H](C)C(=O)N[C@@H](CCCNC(=N)N)C(=O)N[C@@H](Cc2ccccc2)C(=O)N[C@H](C(=O)O)CSSC[C@@H](C(=O)NCC(=O)N[C@@H](CCSC)C(=O)N[C@@H](CO)C(=O)N[C@H](C(=O)N[C@@H](Cc2c[nH]c3ccccc23)C(=O)N[C@@H](CO)C(=O)O)[C@@H](C)O)NC1=O	Relaxin receptor 1 (RXFP1, Homo sapiens, UniProt Q9HBX9, F76A/Y80A)	NanoBRET dissociation	–	infinite dilution, together with: 1 µM relaxin	–	koff slow phase	0.000831 s⁻¹
NC[C@@H]1O[C@H](O[C@H]2[C@@H](O)[C@H](O[C@@H]3[C@@H](O)[C@H](N)C[C@H](N)[C@H]3O[C@H]3O[C@H](CN)[C@@H](O)[C@H](O)[C@H]3N)O[C@@H]2CO)[C@H](N)[C@@H](O)[C@@H]1O	T1, RNA, tetracycline-neomycin hybrid riboswitch	in-line probing	–	72 h, Mg2+ 10 mM, K+ 100 mM	–	binding	binds
CC[C@@H]1[C@H](F)C(=O)N[C@@H]1COc1nccc2cc(C(N)=O)c(OC)cc12	CLK3 (Homo sapiens, UniProt P49761)	ATP probe binding, KiNativ profiling, refers to: ATP loop probe site	THP-1 cell lysate	0.04 mM	–	inhibition	15.5%
NCCCCC(=O)O	SLC6A6 Y138A	binding, microscale thermophoresis	–	31.3 µM, room temperature, together with: 50 nM labelled protein	higher = more binding	normalised MST signal	0.0198
O=c1cc(-c2ccc([N+](=O)[O-])cc2)[nH]c2c(-c3ccc(Cl)cc3)c(Cc3ccccc3)nn12	Sodium channel protein type 8 subunit alpha, C-terminal domain (SCN8A, Homo sapiens, UniProt Q9UQD0)	binder, SPR	–	–	–	koff	0.00864 ± 3.7e-05 s⁻¹
CC(=O)N[C@H](C(=O)N1C[C@H](O)C[C@H]1C(=O)NCc1ccc(-c2scnc2C)cc1)C(C)(C)SCCCCCCNC(=O)C[C@@H]1N=C(c2ccc(Cl)cc2)c2c(sc(C)c2C)-n2c(C)nnc21	Bromodomain-containing protein 2, BD1 (BRD2, Homo sapiens, UniProt P25440)	binding, ITC	–	25 °C, compound in cell, protein in syringe	–	ΔG	-9.49 ± 0.07 kcal/mol
Cc1ncccc1OC[C@H]1CN(CCN2CCc3ccccc32)CCO1	DRD4 (Homo sapiens, UniProt P21917)	radioligand binding	–	concentration not given, together with: [3H]N-methylspiperone	–	inhibition	45.4%
O=C(O)c1ccc(Nc2ncc3c(n2)-c2ccc(Cl)cc2C(c2c(F)cccc2F)=NC3)cc1	CaMKIV(h)	kinase activity	–	1 µM	–	remaining activity	104%
COc1ccc(Cc2nnc(NS(=O)(=O)c3ccc4ccccc4c3)s2)cc1	Glutathione hydrolase 1 proenzyme, without transmembrane domain (Homo sapiens, UniProt P19440)	GSH hydrolysis, uncompetitive inhibitor	–	37 °C, binds gamma-glutamyl enzyme, together with: GSH 5-20 µM	–	Kii	206 ± 37 µM
Nc1ncnc2c1ncn2[C@@H]1O[C@H](COP(=O)(O)OP(=O)(O)OP(=O)(O)O)[C@@H](O)[C@H]1O	P2X purinoceptor 7 (P2rx7, Rattus norvegicus, UniProt Q64663, I214A/Q143A)	ion current, agonist, two-electrode voltage clamp	Xenopus laevis oocytes	100 µM	reference: highest concentration response	normalized current	0.12 and 0.15 and 0.19
CCCC[C@@H]1NC(=O)[C@H](Cc2ccc(O)cc2)NC(=O)[C@@H]2CCCN2C(=O)[C@H](CC(=O)O)NC(=O)[C@H](C)NC(=O)[C@H](Cc2ccccc2)NC(=O)[C@@H]2CSCCC(=O)N3CN(CN(C3)C(=O)CCSC[C@@H](C(=O)N[C@@H](C)C(N)=O)NC1=O)C(=O)CCSC[C@H](NC(C)=O)C(=O)N[C@@H](CC(C)(C)C)C(=O)N1CCC[C@H]1C(=O)N[C@@H](CCC(=O)O)C(=O)N[C@H](CCCCNC(=O)CCc1cn(CCOCCOCCOCCN(CCOCCOCCOCCn3cc(CCC(=O)NCCCC[C@H]4NC(=O)[C@H](CCC(=O)O)NC(=O)[C@@H]5CCCN5C(=O)[C@H](CC(C)(C)C)NC(=O)[C@@H](NC(C)=O)CSCCC(=O)N5CN6CN(C5)C(=O)CCSC[C@H](NC(=O)[C@H](Cc5ccc(O)cc5)NC(=O)[C@@H]5CCCN5C4=O)C(=O)N[C@@H](Cc4ccccc4)C(=O)N[C@@H](C)C(=O)N[C@@H](CC(=O)O)C(=O)N4CCC[C@H]4C(=O)N[C@@H](Cc4ccc(O)cc4)C(=O)N[C@@H](CCCC)C(=O)N[C@H](C(=O)N[C@@H](C)C(N)=O)CSCCC6=O)nn3)CCOCCOCCOCC(=O)NCCCNC(=O)Cn3cc(CCC(=O)NCCCNC(=O)COCCOCCOCCN(CCOCCOCCOCCn4cc(CCC(=O)NCCC(=O)N[C@H]5CSCCC(=O)N6CN7CN(C6)C(=O)CCSC[C@H](NC(=O)[C@@H](CC(=O)O)NC(=O)[C@H](Cc6cccc8ccccc68)NC(=O)[C@@H]6CCCN6C5=O)C(=O)N[C@@H](CCSC)C(=O)N[C@@H](CCCCNC(=N)N)C(=O)N[C@@H](CC(=O)O)C(=O)N[C@@H](Cc5c[nH]c6ccccc56)C(=O)N[C@@H](CO)C(=O)N[C@@H]([C@@H](C)O)C(=O)N5CCC[C@H]5C(=O)N5C[C@H](O)C[C@H]5C(=O)N[C@@H](Cc5c[nH]c6ccccc56)C(=O)N[C@H](C(N)=O)CSCCC7=O)nn4)CCOCCOCCOCCn4cc(CCC(=O)NCCC(=O)N[C@H]5CSCCC(=O)N6CN7CN(C6)C(=O)CCSC[C@H](NC(=O)[C@@H](CC(=O)O)NC(=O)[C@H](Cc6cccc8ccccc68)NC(=O)[C@@H]6CCCN6C5=O)C(=O)N[C@@H](CCSC)C(=O)N[C@@H](CCCCNC(=N)N)C(=O)N[C@@H](CC(=O)O)C(=O)N[C@@H](Cc5c[nH]c6ccccc56)C(=O)N[C@@H](CO)C(=O)N[C@@H]([C@@H](C)O)C(=O)N5CCC[C@H]5C(=O)N5C[C@H](O)C[C@H]5C(=O)N[C@@H](Cc5c[nH]c6ccccc56)C(=O)N[C@H](C(N)=O)CSCCC7=O)nn4)nn3)nn1)C(=O)N1CCC[C@H]1C(=O)N[C@@H](Cc1ccc(O)cc1)C(=O)N2	Tumor necrosis factor receptor superfamily member 9/Nectin-4	reporter gene, agonist	HT-1376 coculture with reporter cells	–	reference: background	Emax	48 fold
Cc1ncsc1-c1ccc([C@H](C)NC(=O)[C@@H]2C[C@@H](O)CN2C(=O)[C@@H](NC(=O)COCCOCCOCCOCCOCC(=O)N2CC(Nc3cc(C(=O)NC[C@H](O)CN4CCc5ccccc5C4)ncn3)C2)C(C)(C)C)cc1	PRMT5 (Homo sapiens, UniProt O14744)	degrader, Western blot	MDA-MB-468	2 µM	–	time to degradation	12 h
NC(=O)C[C@H](N)C(=O)O	Methyl-accepting chemotaxis protein, ligand-binding domain (Pectobacterium atrosepticum, UniProt Q6D6I9)	thermal shift	–	ligand-binding domain	reference: ligand-free protein	ΔTm	8.6 °C
NCCS(=O)(=O)O	SLC6A6 Y138A	binding, microscale thermophoresis	–	122 nM, room temperature, together with: 50 nM labelled protein	higher = more binding	normalised MST signal	-0.015
CCCCCCCCOC(=O)NS(=O)(=O)Nc1ccc(-c2cc3ccccc3[nH]2)cc1OC	Polyunsaturated fatty acid lipoxygenase ALOX15 (Oryctolagus cuniculus, UniProt P12530)	–	–	8 µM, together with: arachidonic acid	–	kcat	3.59 ± 0.41 s⁻¹
CN(C)C(=O)C(CCN1CCC(O)(c2ccc(Cl)cc2)CC1)(c1ccccc1)c1ccccc1	Calcium-activated potassium channel subunit alpha-1, with LRRC26 γ1 subunit (KCNMA1, Homo sapiens, UniProt Q12791)	ion current, inside-out patch, fit of G-V curve	BKα/γ1 channel	30 µM, together with: nominally 0 Ca2+	–	V1/2	-7.82 mV
Nc1ccn([C@@H]2O[C@H](COP(=O)(O)OP(=O)(O)OP(=O)(O)O)C[C@H]2O)c(=O)n1	DNA-directed RNA polymerase subunit beta' / DNA-directed RNA polymerase subunit beta (rpoC/rpoB, Escherichia coli, UniProt P0A8T7+P0A8V2)	RNA extension, denaturing gel	Escherichia coli, elongation complex, 6-MI template	5 µM, 10 min, 25 °C	–	incorporation efficiency	84%
Nc1ncnc2c1ncn2[C@@H]1O[C@H](COP(=O)(O)OP(=O)(O)O)[C@@H](O)[C@H]1O	T2, ssDNA, aptamer	molecular beacon fluorescence quenching	–	–	–	Kd	29 µM
CCCC[C@@H]1NC(=O)[C@H](Cc2ccc(O)cc2)NC(=O)[C@@H]2CCCN2C(=O)[C@H](CC(=O)O)NC(=O)[C@H](C)NC(=O)[C@H](Cc2ccccc2)NC(=O)[C@@H]2CSCCC(=O)N3CN(CN(C3)C(=O)CCSCCC(=O)N[C@@H](CC(C)(C)C)C(=O)N3CCC[C@H]3C(=O)N[C@@H](CCC(=O)O)C(=O)N[C@H](CCCCNC(=O)CCc3cn(CCOCCOCCOCCOCCOCCC(=O)N[C@H]4CSCCC(=O)N5CN6CN(C5)C(=O)CCSC[C@H](NC(=O)[C@@H](CC(=O)O)NC(=O)[C@H](Cc5cccc7ccccc57)NC(=O)[C@@H]5CCCN5C4=O)C(=O)N[C@@H](CCSC)C(=O)N[C@@H](CCCCNC(=N)N)C(=O)N[C@@H](CC(=O)O)C(=O)N[C@@H](Cc4c[nH]c5ccccc45)C(=O)N[C@@H](CO)C(=O)N[C@@H]([C@@H](C)O)C(=O)N4CCC[C@H]4C(=O)N4C[C@H](O)C[C@H]4C(=O)N[C@@H](Cc4c[nH]c5ccccc45)C(=O)N[C@H](C(N)=O)CSCCC6=O)nn3)C(=O)N3CCC[C@H]3C(=O)N[C@@H](Cc3ccc(O)cc3)C(=O)N2)C(=O)CCSCCNC1=O	Tumor necrosis factor receptor superfamily member 9/Nectin-4	reporter gene, agonist	HT-1376 coculture with reporter cells	–	reference: background	Emax	34 fold
CC1(C)C2=C(Cl)C(=O)C(Cl)=CC2=Nc2ccc(OP(=O)(O)O)cc21	phoA (Escherichia coli, UniProt P00634)	substrate, DDAO fluorescence	–	pH 8.0, soluble E. coli enzyme	–	Km	4.1 ± 0.1 µM
